# Measurements collected from several papers.
# A part holds a random share of what one study measured. Substitutions count along the parent as printed.

# Series 1
# Target: Ras GTPase-activating protein-binding protein 1, C-terminal RGG region (G3BP1, Homo sapiens, UniProt Q13283)
# Sequence of UniProt Q13283 (whole entry, looked up): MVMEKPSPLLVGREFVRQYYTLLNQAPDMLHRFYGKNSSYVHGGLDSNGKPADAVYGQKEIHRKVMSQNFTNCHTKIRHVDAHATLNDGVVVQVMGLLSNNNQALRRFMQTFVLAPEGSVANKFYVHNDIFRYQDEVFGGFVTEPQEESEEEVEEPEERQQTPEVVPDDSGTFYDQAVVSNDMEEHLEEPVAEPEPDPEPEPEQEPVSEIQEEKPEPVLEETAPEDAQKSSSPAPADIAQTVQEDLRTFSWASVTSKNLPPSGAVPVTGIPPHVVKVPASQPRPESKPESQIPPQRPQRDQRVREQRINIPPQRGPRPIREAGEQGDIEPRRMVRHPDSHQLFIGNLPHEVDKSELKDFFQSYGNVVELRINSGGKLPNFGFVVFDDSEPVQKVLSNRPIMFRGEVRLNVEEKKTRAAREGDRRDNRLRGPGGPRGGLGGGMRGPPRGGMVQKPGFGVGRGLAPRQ
# Technique: RNA Bind-n-Seq
# Molecule type: RNA
# Sample: in vitro
# Tested at: 1 µM
# Notes: whole 134-nt RNA, ends assumed
# Added: 150 mM KCl
# Reference: input library
# Direction: higher = stronger binding
# Constant ends, left off below: GGGAGUUCUACAGUCCGACGAUC … UGGAAUUCUCGGGUGUCAAGG
Sequence,log2 enrichment
AAGUCCUGUGCUACACAUCGUAUGUACCGAAUCGGUUUUGGGUUUUGGGUUUUGGGAAAGUAUUAUGUUACGCCGUUCGGAUCUGCACUU,-1.29
AAGUCCUGUGCUACACAUCGUAUGUACCGAAUCGGGUUUUGGUUUUGGGUUUUGGGAAAGUAUUAUGUUACGCCGUUCGGAUCUGCACUU,-1.29
ACCAUGCAGGUGGGCAUCUUUGGGAAGUGGGGCAAGGGGGGGAUAGGGAGGGGGGUAACACUUUGGGAACAGGUAGUCCCAGGUCGUUUC,2.46
GUCCUGUGCUACACAUCGUAUGUACCGAAUCGGGUGGGUUUUUUUGGGUUUUUUUGGGAAAGUAUUAUGUUACGCCGUUCGGAUCUGCAC,-0.149
ACCAUGCAGGUGGGCAUCUUUGGGAAGUGGGGCAAGGGGGGGAUAGGGAGGGGGGUAACACGUUGGGAACAGGUGGUCCCAGGUCGUUUC,2.38
GGUUUCUGGUGAGCUUCAUGGUUGACGCCCGGGGUGGUUCCAUGAGAGGAAGUCGCCACAACGGCCUGCGAGUGGUGAUCCCGCCACGGA,-2.13
AGUCCUGUGCUACACAUCGUAUGUACCGAAUCGGGUUUUUGGGUUUUUGGGAAAGGGAAAGUAUUAUGUUACGCCGUUCGGAUCUGCACU,0.29
AGUCCUGUGCUACACAUCGUAUGUACCGAAUCGGGGUUUUGGGGUUUUGGGUUUUGGAAAGUAUUAUGUUACGCCGUUCGGAUCUGCACU,-0.906
CCUGUGCUACACAUCGUAUGUACCGAAUCGGGGAAAAAGGGGAAAGGGGUUUUUUUGGGGAAAGUAUUAUGUUACGCCGUUCGGAUCUGC,1.15
CUGUGCUACACAUCGUAUGUACCGAAUCGGGGUUUGGGGUUUUUUUGGGGUUUUUUUGGGGAAAGUAUUAUGUUACGCCGUUCGGAUCUG,0.357
CAAGUCCUGUGCUACACAUCGUAUGUACCGAAUCGGAAAAAGGUGGUUUUUUUGGAAAGUAUUAUGUUACGCCGUUCGGAUCUGCACUUC,-1.86
UGGGAGGUGGAUUUUGUUUAUUUUUUUAGCUCAUUUCAAGGGGUGGGAAUUUUUUUUUAAUAUGUGUCAUGAAUAAAGUUGUUUUUGAAA,3.9
UCCUGUGCUACACAUCGUAUGUACCGAAUCGGGUUUUUUUGGGUUUUUGGGUUUUUGGGAAAGUAUUAUGUUACGCCGUUCGGAUCUGCA,-0.208
CAAGUCCUGUGCUACACAUCGUAUGUACCGAAUCGGAAAGGGGAAAGGGGAAAGGGAAAGUAUUAUGUUACGCCGUUCGGAUCUGCACUU,-0.16

# Series 2
# Target: ABI1, truncated, D143A, DHFR fusion (Arabidopsis thaliana)
# Technique: DHFR PCA, deep sequencing
# Sample: yeast
# Notes: methotrexate growth selection, single substitutions
# Added: (+)-ABA 200 µM
# Reference: wild-type fitted maximum
# Direction: higher = stronger binding
# Parent: PYL1, truncated, DHFR fusion (Arabidopsis thaliana); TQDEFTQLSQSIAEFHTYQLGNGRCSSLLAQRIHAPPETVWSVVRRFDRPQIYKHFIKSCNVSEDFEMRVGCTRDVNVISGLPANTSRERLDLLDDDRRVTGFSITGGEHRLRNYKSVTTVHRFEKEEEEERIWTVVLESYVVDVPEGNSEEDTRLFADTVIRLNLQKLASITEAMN
Change,relative binding score [%]
S87W,0.928
V78D,-4.12
Q7R,96.2
T106W,91.4
A13V,91.5
R155L,84.9
V100S,67.9
H16K,20
L29E,17
I52A,103
V137E,3.77

# Series 3
# Target: RNA binding protein fox-1 homolog 2, RRM domain, GST-SBP tag (RBFOX2, Homo sapiens, UniProt O43251-10, residues 100-194)
# Technique: RNA Bind-n-Seq
# Molecule type: RNA
# Sample: in vitro
# Tested at: 365 nM
# Notes: natural RNA segment, single round, ends assumed
# Reference: no-protein control
# Direction: higher = stronger binding
# Constant ends, left off below: GGGAGUUCUACAGUCCGACGAUC … UGGAAUUCUCGGGUGCCAA
# Construct (chain): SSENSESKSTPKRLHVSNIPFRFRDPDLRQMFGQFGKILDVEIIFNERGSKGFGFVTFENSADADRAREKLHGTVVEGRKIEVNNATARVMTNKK
Sequence,RBNS enrichment (R)
AUCCACUGAGCCUUCAGCAGAAAUUCCUUUUCUAGACAUUAAAACCACUUAACAUCCGUACUGUUUGUUAUAUAUUUCUCCCGACCCUACUCCCCACUCCUGCCACCAAG,0.834
AUCAGAGGAAGGAUUUUAUAAAGAUUAAUAAAUUUAAUUUUACCAAUAAAUAUUCCCAUAAUUUAGAAAAGGAUGUCGACUUGCUAAUUUCAGAAAUAAUUAUUCAUUUU,0.82
UGCAUAAUUCUGCAGAUGUCCUAGGGUUUGAGUCAGUAACUUGUGAAUGAAAGUCAUUGGUAUUUGGCUUUGUGGUUACAGUACUAAUUUUACUUUGCUGCUCAGUUUUG,0.589
UUGGACAAUUUAGGAAUUUUAAACUUUAGAUGAUCAUUUGGUUCCAUUUUUAUUUCAUUUUUAUUUUUGUUAAUGCAAACAGGACUUAAAUGAACUUUGAUCUCUGUUUU,0.653
ACUGUUACAUGAAAUAAGCCCCUACCUUCUUACUUUCUGGUUUGUUGAAAAAAUACACUGGUGCUCUUUGAAGUGAUAAAAUGAGUGUUUAUGAAUGGGUGUAAUUAGGA,0.312
UAGUAGAGAAUACCACUGUGAGUCUUCUCCUUUUCAGAGCCAAACACAAAGCAGCCUGCGUGCAUUCUUUGAGGUGAGCAUUUAAUCACACACUUGAUGACAUUACAAAG,0.449
CUUGUGUUUUUUAGUAAAAUUGCUUAUUUUUUUCCCAAAGGUGGAAUUUAAUGUUUUGUAGUGAUGAAUAUGAAAAUGCCUGUCAUCUUUAGAUCAUUGAAAGGUUAACU,0.779
CUUCCUUUCUUGGGGGAUGGGCCUUGCCCUCUUCUCUUUUCCCUUCCUGUACCUUUGACUAACGCUCAGCUUCCGGGCCUGCAUGCAGUAGACAGAAGAGGAAGAAAGAA,4.89
GGAUGGGUGGGGUGCGCUUCUUUAUACCAGGAGCACGUGGCUCUUUCUGACCUUUGGCCUGUUCUAGUGCCUAAUCUCCAUUAUUAAAUACUGGCUUCUCCCAACUUCCU,0.212
GAAAUGUUAAGUGGAAAAAUAUACAGUUUGGUAAAAUAAACUAGAUUCUACAUUUAUUUGUGGGUUUUUUUCCCCUCCUUUCUUUCCACAGCACUUUUGAUAUCAAGCAA,0.385
UCCUACAAGCUGCUUCGAGGUCCAGGGGCCUCUGCUUCUUAAACACUAUGUCCCAGUCUUCUCAUGUGACCUCAGCCUGAACCCUGUGGAGACCUCCUCUGGCCAGGGGG,0.323
UGGAAGGACAUAGUUCUUCUAAAAUUUCCUGUUAAUUGGCAUGUACGUCUCAUUUAAAGCAAAUUAAGUAGGACAAGCAAGUCAGUAAAAUAGAAGUAUUAAAAAGAAUC,0.408

# Series 4
# Target: Histone acetyltransferase KAT6A, both winged helices, GST fusion (KAT6A, Homo sapiens, UniProt Q92794, residues 1-181)
# Technique: protein binding microarray
# Molecule type: double-stranded DNA, one strand shown
# Sample: in vitro
# Tested at: not given
# Notes: 8-mer, flanks averaged, mean of 2 arrays, mostly near background
# Reference: not given
# Direction: higher = stronger binding
# Residues (chain): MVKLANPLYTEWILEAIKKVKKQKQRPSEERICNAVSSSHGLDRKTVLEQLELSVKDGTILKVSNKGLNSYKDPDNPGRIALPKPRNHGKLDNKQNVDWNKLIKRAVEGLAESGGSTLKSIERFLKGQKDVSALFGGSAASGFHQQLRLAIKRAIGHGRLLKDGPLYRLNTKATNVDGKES
Sequence,E-score
CGCATAGC,0.25
AGTCGCGA,0.238
CGATCACC,0.0721
CCCCGTAC,0.227
GGGTGAAC,0.0309
GAGCGTTA,0.0895
AGGACATG,-0.154
CCTATTAA,-0.192
AATCGTCA,-0.12
CGAGTAAG,0.036
TACAACAA,-0.122
CACTGAAA,-0.0618
TACTCCCA,-0.145
TATACATA,-0.111
AGTGTAAC,-0.128
AAGTCCGT,0.213
GTCACAAA,-0.00775
ATTTCGAA,0.0132
GACTAGCA,-0.0879
GCCCCCAC,-0.152
AGCGAGTG,0.0323
CCCTATTA,-0.177
CATGACAA,-0.175
ATTTGCTA,-0.143
CCTGCTAC,0.00772

# Series 5
# Target: TAR DNA-binding protein 43, full length, His tag (TARDBP, Homo sapiens, UniProt Q13148, residues 1-414)
# Technique: RNA Bind-n-Seq
# Molecule type: RNA
# Sample: in vitro
# Tested at: 20 nM
# Notes: 6-mer, flanks averaged, single round
# Added: 150 mM KCl
# Reference: input library
# Direction: higher = stronger binding
Sequence,6-mer enrichment (R)
GAUGUU,0.805
UGAUAC,0.639
AGGUCC,0.786
ACACAU,0.65
AUUGGU,0.756
UGCUCG,0.754
AAUGGC,0.851
GGUAGG,3.7
AGAUUU,0.563
UUGAAU,0.742
ACUCGG,0.898
AUAGCC,0.64
GAUCUU,0.58
GACGGG,4.33
GGCAUU,0.893
CCGAGA,0.885
AAGGAA,0.812

# Series 6
# Target: Sal-like protein 4, full length isoform A (SALL4, Homo sapiens, UniProt Q9UJQ4, residues 1-1053)
# Sequence of UniProt Q9UJQ4 (whole entry, looked up): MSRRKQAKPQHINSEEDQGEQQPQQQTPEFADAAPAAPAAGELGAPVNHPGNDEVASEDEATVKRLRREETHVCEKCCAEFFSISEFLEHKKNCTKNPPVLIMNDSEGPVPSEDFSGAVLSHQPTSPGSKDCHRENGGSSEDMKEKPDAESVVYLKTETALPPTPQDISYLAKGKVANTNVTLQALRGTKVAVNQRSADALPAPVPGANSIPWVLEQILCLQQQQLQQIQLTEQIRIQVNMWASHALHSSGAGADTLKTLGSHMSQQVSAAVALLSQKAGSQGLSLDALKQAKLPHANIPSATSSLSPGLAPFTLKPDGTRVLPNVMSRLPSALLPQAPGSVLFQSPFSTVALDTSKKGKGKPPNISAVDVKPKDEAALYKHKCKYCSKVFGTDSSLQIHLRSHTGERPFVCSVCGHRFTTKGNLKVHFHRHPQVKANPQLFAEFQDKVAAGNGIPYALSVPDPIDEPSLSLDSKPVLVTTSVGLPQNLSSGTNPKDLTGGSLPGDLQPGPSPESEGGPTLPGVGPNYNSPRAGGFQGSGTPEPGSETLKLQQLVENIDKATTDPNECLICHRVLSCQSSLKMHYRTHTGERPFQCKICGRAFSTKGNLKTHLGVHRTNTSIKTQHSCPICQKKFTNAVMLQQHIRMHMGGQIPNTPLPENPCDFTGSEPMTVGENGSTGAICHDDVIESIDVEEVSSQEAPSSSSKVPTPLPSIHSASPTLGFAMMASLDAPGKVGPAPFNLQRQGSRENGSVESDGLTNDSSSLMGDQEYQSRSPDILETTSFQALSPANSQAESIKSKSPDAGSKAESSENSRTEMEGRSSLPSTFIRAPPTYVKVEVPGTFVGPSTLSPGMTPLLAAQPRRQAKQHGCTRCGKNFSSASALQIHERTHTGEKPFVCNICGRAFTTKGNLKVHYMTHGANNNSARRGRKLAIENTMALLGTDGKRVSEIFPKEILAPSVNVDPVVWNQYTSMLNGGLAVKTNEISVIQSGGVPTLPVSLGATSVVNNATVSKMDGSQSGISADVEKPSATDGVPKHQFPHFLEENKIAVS
# Technique: universal PBM
# Molecule type: double-stranded DNA, one strand shown
# Sample: in vitro
# Tested at: 600 nM
# Notes: 8-mer, flanks averaged, mean of replicates
# Direction: higher = stronger binding
Sequence,E-score
AAGAATGT,0.202
GGTACTTA,0.0389
AGCCGCAT,-0.175
TACGGGAA,-0.0496
CCAATAAA,0.251
ACAAGCCA,-0.0377
CACTCCGA,-0.237
GACGCAGC,-0.311
CCTTCGCG,-0.109
GCGGGCCC,-0.372
CAACGTTA,0.155
CGTCTCGC,-0.221
CGCAGGTC,-0.317
CTTGAGAA,0.166
CCTTACAA,0.0718
TTATCGAA,0.251
GAATGCGA,0.0695
GCCTATAC,-0.0576
CGCGGCTC,-0.283

# For quick reference, copied from above (series 3):
Sequence,RBNS enrichment (R)
AUCCACUGAGCCUUCAGCAGAAAUUCCUUUUCUAGACAUUAAAACCACUUAACAUCCGUACUGUUUGUUAUAUAUUUCUCCCGACCCUACUCCCCACUCCUGCCACCAAG,0.834
AUCAGAGGAAGGAUUUUAUAAAGAUUAAUAAAUUUAAUUUUACCAAUAAAUAUUCCCAUAAUUUAGAAAAGGAUGUCGACUUGCUAAUUUCAGAAAUAAUUAUUCAUUUU,0.82
UGCAUAAUUCUGCAGAUGUCCUAGGGUUUGAGUCAGUAACUUGUGAAUGAAAGUCAUUGGUAUUUGGCUUUGUGGUUACAGUACUAAUUUUACUUUGCUGCUCAGUUUUG,0.589
UUGGACAAUUUAGGAAUUUUAAACUUUAGAUGAUCAUUUGGUUCCAUUUUUAUUUCAUUUUUAUUUUUGUUAAUGCAAACAGGACUUAAAUGAACUUUGAUCUCUGUUUU,0.653
ACUGUUACAUGAAAUAAGCCCCUACCUUCUUACUUUCUGGUUUGUUGAAAAAAUACACUGGUGCUCUUUGAAGUGAUAAAAUGAGUGUUUAUGAAUGGGUGUAAUUAGGA,0.312
UAGUAGAGAAUACCACUGUGAGUCUUCUCCUUUUCAGAGCCAAACACAAAGCAGCCUGCGUGCAUUCUUUGAGGUGAGCAUUUAAUCACACACUUGAUGACAUUACAAAG,0.449
CUUGUGUUUUUUAGUAAAAUUGCUUAUUUUUUUCCCAAAGGUGGAAUUUAAUGUUUUGUAGUGAUGAAUAUGAAAAUGCCUGUCAUCUUUAGAUCAUUGAAAGGUUAACU,0.779
CUUCCUUUCUUGGGGGAUGGGCCUUGCCCUCUUCUCUUUUCCCUUCCUGUACCUUUGACUAACGCUCAGCUUCCGGGCCUGCAUGCAGUAGACAGAAGAGGAAGAAAGAA,4.89
GGAUGGGUGGGGUGCGCUUCUUUAUACCAGGAGCACGUGGCUCUUUCUGACCUUUGGCCUGUUCUAGUGCCUAAUCUCCAUUAUUAAAUACUGGCUUCUCCCAACUUCCU,0.212
GAAAUGUUAAGUGGAAAAAUAUACAGUUUGGUAAAAUAAACUAGAUUCUACAUUUAUUUGUGGGUUUUUUUCCCCUCCUUUCUUUCCACAGCACUUUUGAUAUCAAGCAA,0.385
UCCUACAAGCUGCUUCGAGGUCCAGGGGCCUCUGCUUCUUAAACACUAUGUCCCAGUCUUCUCAUGUGACCUCAGCCUGAACCCUGUGGAGACCUCCUCUGGCCAGGGGG,0.323
UGGAAGGACAUAGUUCUUCUAAAAUUUCCUGUUAAUUGGCAUGUACGUCUCAUUUAAAGCAAAUUAAGUAGGACAAGCAAGUCAGUAAAAUAGAAGUAUUAAAAAGAAUC,0.408
